Measured values of several laboratories.
Every numbered part comes from another study and shows a few of its results, in no order. “And” joins repeats or separate records; there may be more than shown.
UniProt P9WPP7, sequence (whole entry, looked up): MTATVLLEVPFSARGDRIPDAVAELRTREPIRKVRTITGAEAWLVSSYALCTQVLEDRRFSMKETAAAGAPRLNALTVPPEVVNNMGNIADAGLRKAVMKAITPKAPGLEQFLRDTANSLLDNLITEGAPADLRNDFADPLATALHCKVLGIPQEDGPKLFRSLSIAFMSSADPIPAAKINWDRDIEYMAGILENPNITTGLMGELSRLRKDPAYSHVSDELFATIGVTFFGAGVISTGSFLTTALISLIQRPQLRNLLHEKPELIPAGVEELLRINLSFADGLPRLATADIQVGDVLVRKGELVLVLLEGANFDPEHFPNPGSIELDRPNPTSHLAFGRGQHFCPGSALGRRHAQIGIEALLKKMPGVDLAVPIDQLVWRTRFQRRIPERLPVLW
UniProt P10635, sequence (whole entry, looked up): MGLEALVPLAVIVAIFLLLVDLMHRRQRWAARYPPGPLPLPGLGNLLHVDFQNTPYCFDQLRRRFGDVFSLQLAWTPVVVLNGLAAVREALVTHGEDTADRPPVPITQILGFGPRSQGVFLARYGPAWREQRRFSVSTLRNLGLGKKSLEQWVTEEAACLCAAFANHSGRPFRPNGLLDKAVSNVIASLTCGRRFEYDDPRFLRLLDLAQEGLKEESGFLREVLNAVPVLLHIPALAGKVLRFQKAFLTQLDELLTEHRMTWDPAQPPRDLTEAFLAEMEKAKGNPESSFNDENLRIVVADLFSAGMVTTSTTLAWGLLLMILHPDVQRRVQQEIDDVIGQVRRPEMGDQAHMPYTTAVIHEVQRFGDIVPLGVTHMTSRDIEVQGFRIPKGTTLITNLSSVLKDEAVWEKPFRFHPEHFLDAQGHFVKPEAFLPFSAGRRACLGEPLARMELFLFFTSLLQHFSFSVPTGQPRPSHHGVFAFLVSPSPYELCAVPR

Block 1 — cell line: HEK-293T/ACE2; observed: pseudovirus infection; organism: VSV pseudotyped with SARS-CoV-2 spike; concentration: 10 µM; time: 16 h; relative to: vehicle-treated
CC1(C)O[C@@H]2C[C@H]3[C@@H]4C[C@H](F)C5=CC(=O)C=C[C@]5(C)[C@H]4[C@@H](O)C[C@]3(C)[C@]2(C(=O)CO)O1 gave a GFP-positive cells of 73%.
With CC(N)C12CC3CC(CC(C3)C1)C2 (stereo not drawn) the GFP-positive cells was 56.3%.
For Cn1c(=O)cc(N2CCC[C@@H](N)C2)n(Cc2ccccc2C#N)c1=O, the GFP-positive cells was 90.5%.

Block 2 — observed: enzyme activity; mode: inhibitor; concentration: 20 µM; setting: hit confirmation
Target: Replicase polyprotein 1ab, main protease (rep, Severe acute respiratory syndrome coronavirus 2, UniProt P0DTD1)
CC(=O)O/N=C1/C(=O)N(Cc2cc(Cl)ccc2Cl)c2ccc(Cl)cc21 has an inhibition of 66.6%.
For CN(C)C(=S)SSC(=S)N(C)C, the inhibition was 99.9%.
With CN(C)/N=N/c1ccc(C(=O)O)cc1 the inhibition was 20.7%.

Block 3 — observed: enzyme activity; mode: inhibitor; concentration: 20 µM
Target: Replicase polyprotein 1ab, polymerase (rep, Severe acute respiratory syndrome coronavirus 2, UniProt P0DTD1)
For [2H]C([2H])([2H])C(=O)Nc1c(I)c(C(=O)O)c(I)c(C(=O)NC)c1I, the inhibition was 2.82%.
For C[C@@]1(O)[C@H](O)[C@@H](CO)O[C@H]1n1cnc2c(=O)[nH]c(N)nc21, the inhibition was -0.08%.
Cn1c(=O)n(-c2ccc(C(C)(C)C#N)cc2)c2c3cc(-c4cnc5ccccc5c4)ccc3ncc21 has an inhibition of -4.67%.
With CN(C)CCOC(=O)C(c1ccccc1)C1(O)CCCC1 (stereo not drawn) the inhibition was 4.65%.
CCCCCCOc1ccccc1C(N)=O gave an inhibition of 3.62%.
With COC(=O)[C@@H](N)CCCNC(=N)N[N+](=O)[O-] the inhibition was 1.6%.
Cc1cc(C(=O)O)sc1C(N)C(=O)O (stereo not drawn) has an inhibition of -13.9%.
The inhibition of CC(=O)OCC(=O)[C@@]1(OC(C)=O)[C@@H](C)C[C@H]2[C@@H]3C[C@H](F)C4=CC(=O)C=C[C@]4(C)[C@@]3(F)[C@@H](O)C[C@@]21C is reported as 0.46%.
For CCCCCCCCCCCCCCCCCCOC[C@H](COP(=O)([O-])OCC[N+](C)(C)C)OC, the inhibition was -5.28%.
CNCC[C@H](Oc1cccc2ccccc12)c1cccs1 has an inhibition of 6.45%.
COc1cc(CN2CCN(c3ccc(F)cc3)CC2)cc(OC)c1OC has an inhibition of 4.32%.
The inhibition of N=C(N)NC(=O)c1cnn(-c2cccc3ncccc23)c1C1CC1 is reported as 2.3%.
With O=C(NCCN1CCN(c2ncccn2)CC1)C12CC3CC(CC(C3)C1)C2 the inhibition was -1.53%.
For CN(C)CCOC(=O)COc1ccc(Cl)cc1, the inhibition was -2.66%.
For CCC(CC)(CC(=O)Nc1cccc(/C=C/c2nc(C3CCC3)cs2)c1)C(=O)O, the inhibition was 6.96%.
N=C(N)NC(=N)N1CCOCC1 has an inhibition of 0.88%.
C/C(=C\c1csc(C)n1)[C@@H]1C[C@@H]2O[C@]2(C)CCC[C@H](C)[C@H](O)[C@@H](C)C(=O)C(C)(C)[C@@H](O)CC(=O)O1 has an inhibition of -5.23%.
With Cn1cc(-c2ccc3nnc(C(F)(F)c4ccc5ncccc5c4)n3n2)cn1 the inhibition was 1.94%.
With NC(=O)c1ncn([C@@H]2O[C@H](CO)[C@@H](O)[C@H]2O)c1O the inhibition was -2.67%.
With COc1ccc(-c2cc(=O)c3c(OC)c(OC)c(OC)c(OC)c3o2)cc1 the inhibition was -1.92%.
CN1C(=O)N(c2cc(Cl)cc(Cl)c2)C(=O)[C@]12CN(Cc1cc(C(=O)O)cs1)C[C@H]2c1ccc(C#N)cc1 gave an inhibition of -11.9%.
For c1ccc(CC2=NCCN2)cc1, the inhibition was 18.2%.
For COc1ccc(OC)c(C2C(C#N)=C(N)Oc3n[nH]c(-c4ccc5ccccc5c4)c32)c1 (stereo not drawn), the inhibition was 0.51%.
c1ccc2c(-c3cnn4cc(-c5ccc(N6CCNCC6)cc5)cnc34)ccnc2c1 gave an inhibition of 10.4%.
CCCc1c(OCC(O)COc2ccc3c(=O)cc(C(=O)O)oc3c2CCC)ccc(C(C)=O)c1O (stereo not drawn) gave an inhibition of -2.02%.

Mixed results
rep main protease: Replicase polyprotein 1ab, main protease (rep, Severe acute respiratory syndrome coronavirus 2, UniProt P0DTD1)
For Cc1nn(-c2ccc(Cl)cc2)c2c1C(c1ccc(I)cc1)C(C#N)=C(N)O2 (stereo not drawn), the viral reduction was 0.556% (SARS-CoV-2; viral replication; Vero; 1 µM).
The nuclei count of O=C(NC(=O)c1c(F)cccc1F)Nc1cc(Cl)c(OC(F)(F)C(F)C(F)(F)F)cc1Cl (stereo not drawn) is reported as 0.0709 z-score (mouse MPNST tumor cells; high-content nuclear imaging, measured: cell number; 10 µM, 12 h, mean of 2 replicates; relative to: plate mean, higher = more cells).
C[C@@H]1CN(c2ncc(C(O)CO)cc2Cl)CCN1c1nc2c(-c3cc(F)c(F)c(F)c3)cc(C(F)(F)F)cc2[nH]1 (stereo partly drawn) gave an EC90 of over 2500 nM (SARS-CoV-2; viral replication; Huh-7-ACE2, USA-WA1/2020).
The inhibition of COc1ccc(-c2oc3ccccc3c(=O)c2N)cc1N is reported as -1.05% (rep main protease; viral replication, mKate2 reporter; SARS-CoV-2; 20 µM).
For O=C(NC[C@@H]1CC2(CCOCC2)CN1C(=O)C1=Cc2ccccc2OC1)c1cncnc1, the inhibition was 11.2% (rep main protease; enzyme activity, inhibitor; 5 µM, mean of runs).
With Cc1nn(-c2ccc(Cl)cc2)c2c1C(c1ccc(Br)cc1)C(C#N)=C(N)O2 (stereo not drawn) the viral reduction was 3.95% (SARS-CoV-2; viral replication; Vero; 10 µM).
The EC50 of CCC(CC)COC(=O)[C@H](C)N[P@](=O)(OC[C@H]1O[C@@](C#N)(c2ccc3c(N)ncnn23)[C@H](O)[C@@H]1O)Oc1ccccc1 is reported as 2.6 nM (SARS-CoV-2; viral replication; Huh-7-ACE2, USA-WA1/2020; 24 h).
Under “nuclear SOX9 intensity”, CC(C)(C)NCC(O)COc1cccc2[nH]c(C#N)cc12 (stereo not drawn) is recorded as 96.5 % of DMSO (mouse MPNST tumor cells; high-content immunofluorescence imaging, measured: nuclear SOX9; 10 µM, 12 h, mean of 2 replicates; relative to: DMSO control, higher = more nuclear SOX9).
For Cc1cncc(CC(=O)N2CC3(CC[C@H](CNC(=O)[C@@]4(O)CCc5ccccc5C4)O3)C2)c1, the inhibition was 13% (rep main protease; enzyme activity, inhibitor; 5 µM, run 2).
With C=CC(c1ccc(-c2ccc3cc(OC)ccc3c2)cc1)n1ccnc1 (stereo not drawn) the Kd was 800 nM (cyp121 (Mycobacterium tuberculosis, UniProt P9WPP7); binding).
Cn1cnc(Cn2c(=O)[nH]/c(=N\c3cc4cn(C)nc4cc3Cl)n(Cc3cc(F)c(F)cc3F)c2=O)n1 gave an IC50 of over 100000 nM (Cytochrome P450 2D6 (CYP2D6, Homo sapiens, UniProt P10635); inhibitor; human liver microsomes; 0 min preincubation, together with: dextromethorphan 10 µM).
COc1cc(O)c(CC=C(C)C)c2c1C(=O)CC(c1ccc(O)cc1)O2 (stereo not drawn) has a kon of 1790 M⁻¹ s⁻¹ (Spike glycoprotein (Severe acute respiratory syndrome coronavirus 2, UniProt P0DTC2); binding, BLI).
The nuclei count of COc1cc2c(cc1OC)C1CC(=O)C(CC(C)C)CN1CC2 (stereo not drawn) is reported as 0.133 z-score and 0.881 z-score (mouse MPNST tumor cells; high-content nuclear imaging, measured: cell number; 10 µM, 12 h, mean of 2 replicates; relative to: plate mean, higher = more cells).
With CNC(=O)[C@@H](NC(=O)[C@H](CC(C)C)[C@H](O)C(=O)NO)C(C)(C)C the remaining activity was 5.03% and 8.14% and 4.33% (Daboia russelii venom proteases (SVMP); protease activity, inhibitor; GA population; 10 µM, together with: azocasein substrate; relative to: venom alone).
With Cc1cccc(C(C)c2cnc[nH]2)c1C (stereo not drawn) the IC50 was over 2000 nM (SARS-CoV-2; viral replication; Huh-7).
For COCCNC(=O)C1CCCN(C2CCN(C(=O)c3cccnn3)CC2)C1 (stereo not drawn), the remaining activity was 62% (Lassa mammarenavirus; viral replication; Huh-7; 10 µM, 72 h).
For O=C(Nc1ccc(Cl)c(-c2nc3ncccc3o2)c1)c1cccc(OCc2ccccc2)c1, the EC50 was over 50000 nM (HEK293T; pseudovirus entry; SARS-CoV spike pseudotyped HIV-1; 72 h).
For `daurisoline`, the inhibition was -0.782% (rep main protease; enzyme activity, Gaussia luciferase reporter; SARS-CoV-2; 20 µM).
CC[C@H](C)[C@H](NC(=O)[C@H](CC(C)C)NC(=O)[C@H](Cc1c[nH]c2ccccc12)NC(=O)[C@H](CCC(N)=O)NC(=O)[C@@H](NC(=O)[C@H](Cc1ccccc1)NC(=O)[C@H](C)NC(=O)[C@H](CCCCNC(=O)COCCOCCNC(=O)COCCOCCNC(=O)CC[C@H](NC(=O)CCCCCCCCCCCCCCCCCCC(=O)O)C(=O)O)NC(=O)[C@H](CCC(N)=O)NC(=O)[C@H](C)NC(=O)[C@@H](NC(=O)[C@H](CCCCN)NC(=O)[C@H](CC(=O)O)NC(=O)[C@H](CC(C)C)NC(=O)C(C)(C)NC(=O)[C@@H](NC(=O)[C@H](CO)NC(=O)[C@H](Cc1ccc(O)cc1)NC(=O)[C@H](CC(=O)O)NC(=O)[C@H](CO)NC(=O)[C@@H](NC(=O)[C@H](Cc1ccccc1)NC(=O)[C@@H](NC(=O)CNC(=O)[C@H](CCC(=O)O)NC(=O)C(C)(C)NC(=O)[C@@H](N)Cc1ccc(O)cc1)[C@@H](C)O)[C@@H](C)O)[C@@H](C)CC)[C@@H](C)CC)C(C)C)C(=O)N[C@@H](C)C(=O)NCC(=O)NCC(=O)N1CCC[C@H]1C(=O)N[C@@H](CO)C(=O)N[C@@H](CO)C(=O)NCC(=O)N[C@@H](C)C(=O)N1CCC[C@H]1C(=O)N1CCC[C@H]1C(=O)N1CCC[C@H]1C(=O)N[C@@H](CO)C(N)=O: “injection site reaction” 20% (healthy human; 1.0 mg, single ascending dose).
COc1ccc(C[C@@H]2c3cc(Oc4cc(C[C@@H]5c6cc(O)c(OC)cc6CCN5C)ccc4O)c(OC)cc3CCN2C)cc1 has a mean inhibition of 0% (SARS-CoV-2; viral cytopathic effect; Vero E6; 0.7812 µM).
